Results from different studies.
Parts stem from different laboratories: compare values within a part only. Substitutions count along the parent as printed.

Study 1 — technique: DHFR PCA, deep sequencing; matrix: yeast; added: (+)-ABA 58 µM; reference: wild-type fitted maximum; reading: higher = stronger binding; measurement: relative binding score
Target: ABI1, truncated, D143A, DHFR fusion (Arabidopsis thaliana)
Notes: methotrexate growth selection, single substitutions
Starting sequence: PYL1, truncated, DHFR fusion (Arabidopsis thaliana); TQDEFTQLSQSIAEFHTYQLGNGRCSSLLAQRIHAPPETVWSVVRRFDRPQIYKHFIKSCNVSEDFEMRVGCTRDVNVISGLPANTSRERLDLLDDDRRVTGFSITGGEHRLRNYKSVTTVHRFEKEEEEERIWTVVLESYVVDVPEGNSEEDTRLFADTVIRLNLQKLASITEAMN; partner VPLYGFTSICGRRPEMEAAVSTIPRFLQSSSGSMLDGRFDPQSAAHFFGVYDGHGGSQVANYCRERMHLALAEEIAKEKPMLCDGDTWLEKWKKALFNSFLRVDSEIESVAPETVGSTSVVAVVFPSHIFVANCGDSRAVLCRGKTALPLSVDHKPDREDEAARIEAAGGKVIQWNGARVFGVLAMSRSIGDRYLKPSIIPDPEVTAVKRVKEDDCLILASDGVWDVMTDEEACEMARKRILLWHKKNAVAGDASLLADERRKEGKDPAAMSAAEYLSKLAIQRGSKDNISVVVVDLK
R49W: 23%
L164D: -4.22%
C60V: 82%
T173S: 83.3%
A158E: 5.21%
G108A: 0.258%
E67S: 83%
E147I: 79.3%
V136A: 45.3%
D96A: 24.9%
E147L: 77.9%
T119I: 66%
R113F: 76.1%
S140L: 0.543%
F124A: 87.7%
E64H: 89.9%
I133T: 95.5%
I105T: 48.2%

Study 2 — technique: RNA Bind-n-Seq; molecule type: RNA; matrix: in vitro; concentration: 1 µM; notes: whole 134-nt RNA, ends assumed; added: 150 mM KCl; reference: input library; reading: higher = stronger binding; measurement: log2 enrichment
Target: Ras GTPase-activating protein-binding protein 1, RRM domain (G3BP1, Homo sapiens, UniProt Q13283)
Sequence of UniProt Q13283 (whole entry, looked up): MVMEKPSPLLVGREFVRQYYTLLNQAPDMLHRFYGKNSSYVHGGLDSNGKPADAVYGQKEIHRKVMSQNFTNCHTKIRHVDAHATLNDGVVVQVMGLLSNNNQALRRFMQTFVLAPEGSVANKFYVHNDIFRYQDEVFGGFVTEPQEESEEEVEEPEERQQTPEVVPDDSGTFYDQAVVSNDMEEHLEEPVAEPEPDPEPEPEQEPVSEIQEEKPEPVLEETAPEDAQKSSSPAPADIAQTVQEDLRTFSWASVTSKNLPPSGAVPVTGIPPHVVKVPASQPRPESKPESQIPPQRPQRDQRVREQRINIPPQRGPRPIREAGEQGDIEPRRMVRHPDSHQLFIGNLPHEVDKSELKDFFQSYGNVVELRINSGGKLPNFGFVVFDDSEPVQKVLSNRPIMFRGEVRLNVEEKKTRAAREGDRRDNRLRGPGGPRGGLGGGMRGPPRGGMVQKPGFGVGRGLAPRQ
Shared flanks, not repeated: GGGAGUUCUACAGUCCGACGAUC … UGGAAUUCUCGGGUGUCAAGG
ACGAUGCAGGUGGGCAUCUUUGGGAAGUGGGGCAAGGGGGGGAUAGGGAGGGGGGUAACACUUUGGGAACAGGUGGUCCCAGGUCGUUUC: -0.652
CCUGUGCUACACAUCGUAUGUACCGAAUCGGGGUUUGGGGUUUUUGGGGUUUUUUUGGGGAAAGUAUUAUGUUACGCCGUUCGGAUCUGC: 1.25
AAGUCCUGUGCUACACAUCGUAUGUACCGAAUCGGAAAAAGGAAAGGUUUUUUUGGAAAGUAUUAUGUUACGCCGUUCGGAUCUGCACUU: -0.34
UCCUGUGCUACACAUCGUAUGUACCGAAUCGGGAAAAAAAGGAAAAAAAGGAAAAAAAGGAAAGUAUUAUGUUACGCCGUUCGGAUCUGC: 0.131
AAGUCCUGUGCUACACAUCGUAUGUACCGAAUCGGGGUUUGGGGUUUGGGGUUUGGAAAGUAUUAUGUUACGCCGUUCGGAUCUGCACUU: -0.562
UCAAGUCCUGUGCUACACAUCGUAUGUACCGAAUCGGAGGUUUUUUUGGAAAGGAAAGUAUUAUGUUACGCCGUUCGGAUCUGCACUUCC: -0.146
AAGUCCUGUGCUACACAUCGUAUGUACCGAAUCAAAUUUAAACCCAAACCCCCAAAAAAGUAUUAUGUUACGCCGUUCGGAUCUGCACUU: -0.185
CUGUGCUACACAUCGUAUGUACCGAAUCGGUUUUUUUGGGGUUUUUUUGGUUUUUUUGGGGAAAGUAUUAUGUUACGCCGUUCGGAUCUG: -0.318
CACAGACAACACGCACCCACACAGACACAGAGGGAAGGGGUUGGGAUGGGGACAGGGUGCACAGCAGGGCGGGAUAGGACCCCAGCCCCU: -0.327
CAAGUCCUGUGCUACACAUCGUAUGUACCGAAUCGGGUUUGGGUUUUUGGGAGGGAAAGUAUUAUGUUACGCCGUUCGGAUCUGCACUUC: 0.627

Study 3 — target: CCNA2, cyclin fold, Cln2 fusion (human); technique: yeast growth competition, sequencing; matrix: yeast; notes: strong parent motif; reference: not given; reading: higher = stronger binding; measurement: normalised enrichment score
Starting sequence: ORC1 docking peptide (human); PRARKRLELGNLG; partner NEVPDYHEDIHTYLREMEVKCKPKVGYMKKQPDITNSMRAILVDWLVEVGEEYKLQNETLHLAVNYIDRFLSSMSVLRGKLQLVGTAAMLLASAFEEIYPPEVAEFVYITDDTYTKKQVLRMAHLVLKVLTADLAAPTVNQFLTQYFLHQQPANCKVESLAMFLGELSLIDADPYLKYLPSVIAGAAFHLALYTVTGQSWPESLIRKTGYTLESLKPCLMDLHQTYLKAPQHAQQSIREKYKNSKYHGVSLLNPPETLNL
PRARKRFELGNLG [L7F]: 0.625
PRARKRLELGWLG [N11W]: 3.86
PRAAKRLELGNLG [R4A]: 1.7
PRARKRLEWGNLG [L9W]: 5.6
PRARKRLELGFLG [N11F]: 4.79
PRARKRLEKGNLG [L9K]: 0.747
PRARKRLGLGNLG [E8G]: 1.76
PRARKRCELGNLG [L7C]: 0.826
PRARKRLETGNLG [L9T]: 1.03
PRARKRLELGNLW [G13W]: 3.32
PRARKRLFLGNLG [E8F]: 5.07
PRARERLELGNLG [K5E]: -0.0286
PRARKNLELGNLG [R6N]: 1.31
PRVRKRLELGNLG [A3V]: 2.89
PRARKRLELGCLG [N11C]: 5.35
PRARKKLELGNLG [R6K]: 4.87
PRARKRLELQNLG [G10Q]: 3.79

Study 4 — target: UBE2U UBC core domain (UniProt Q5VVX9); technique: yeast two-hybrid; matrix: yeast; notes: mostly zero background; reference: not given; reading: higher = stronger interaction; measurement: lacZ reporter activity
B1: BFAR RING domain (UniProt Q9NZS9); chain GPQISVSEFSCHCCYDILVNPTTLNCGHSFCRHCLALWWASSKKTECPECREKWEGFPKVS
B2: NFX1 RING domain (UniProt Q12986); chain IEQLTTEKYECMVCCELVRVTAPVWSCQSCYHVFHLNCIKKWARSPASQADGQSGWRCPACQNVSAHVPNTY
B3: RNF103 RING domain (UniProt O00237); chain WPADMLHCTECVVCLENFENGCLLMGLPCGHVFHQNCIVMWLAGGRHCCPVCRWPSYKKKQPY
B4: MARCHF1 RING domain (UniProt Q8TCQ1); chain TAPRSQSRLSVCPSTQDICRICHCEGDEESPLITPCRCTGTLRFVHQSCLHQWIKSSDTRCCELCKYDFIMETKLKPLRKWE
B5: HLTF RING domain (UniProt Q14527); chain LILSSGSDEECAICLDSLTVPVITHCAHVFCKPCICQVIQNEQPHAKCPLCRNDIHEDNLLE
B6: RNF6 RING domain (UniProt Q9Y252); chain NSIDSELGKICSVCISDYVTGNKLRQLPCMHEFHIHCIDRWLSENCTCPICRQPVLGSNIAN
B7: RUFY1 RING domain (UniProt Q96T51); chain QALKGHAWLKDDEATHCRQCEKEFSISRRKHHCRNCGHIFCNTCSSNELALPSYPKPVRVCDSCHTLLLQRCSSTAS
B8: MKRN3 RING domain (UniProt Q13064); chain FAVQRGMDKVCGICMEVVYEKANPNDRRFGILSNCNHSFCIRCIRRWRSARQFENRIVKSCPQCRVTSELVIPSE
B9: MID2 RING domain (UniProt Q9UJV3); chain KMETLESELTCPICLELFEDPLLLPCAHSLCFSCAHRILVSSCSSGESIEPITAFQCPTCRYVISLNHRGL
B10: ARIH2 RING domain (UniProt O95376); chain HVPTSHPPHHCAVCMQFVRKENLLSLACQHQFCRSCWEQHCSVLVKDGVGVGVSCMAQDCPLRTPEDFVF
B11: CNOT4 RING domain (UniProt O95628); chain MSRSPDAKEDPVECPLCMEPLEIDDINFFPCTCGYQICRFCWHRIRTDENGLCPACRKPYPED
Target sequence (chain): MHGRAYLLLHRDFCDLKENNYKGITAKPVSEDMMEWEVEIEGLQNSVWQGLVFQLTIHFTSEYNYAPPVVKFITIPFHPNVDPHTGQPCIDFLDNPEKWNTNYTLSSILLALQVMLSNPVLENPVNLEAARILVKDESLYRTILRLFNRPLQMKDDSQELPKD
B1 (BFAR RING domain): 12200
B2 (NFX1 RING domain): 0
B3 (RNF103 RING domain): 14800
LVKDFNPYITCYICKGYLIKPTTVTECLHTFCKTCIVQHFEDSNDCPRCGNQVHETNPLE (PCGF5 RING domain (UniProt Q86SE9)): 0
B4 (MARCHF1 RING domain): 0
DDVLTKDAGECVICLEELLQGDTIARLPCLCIYHKSCIDSWFEVNRSCPEHPAD (ZNRF1 RING domain (UniProt Q8ND25)): 10900
B5 (HLTF RING domain): 14400
B6 (RNF6 RING domain): 0
B7 (RUFY1 RING domain): 14700
LEALSSDFLACKICLEQLRAPKTLPCLHTYCQDCLAQLADGGRVRCPECRETVPVPPEGV (TRIM56 RING domain (UniProt Q9BRZ2)): 0
B8 (MKRN3 RING domain): 0
B9 (MID2 RING domain): 11600
FAEQPSVKLCCQLCCSVFKDPVITTCGHTFCRRCALKSEKCPVDNVKLTVVVNNI (TRAF7 RING domain (UniProt Q6Q0C0)): 0
B10 (ARIH2 RING domain): 16400
B11 (CNOT4 RING domain): 0
FDPPLESKYECPICLMALREAVQTPCGHRFCKACIIKSIRDAGHKCPVDNEILLENQLFP (TRAF6 RING domain (UniProt Q9Y4K3)): 9660

Excerpt of the above (study 2):
CACAGACAACACGCACCCACACAGACACAGAGGGAAGGGGUUGGGAUGGGGACAGGGUGCACAGCAGGGCGGGAUAGGACCCCAGCCCCU: -0.327
CCUGUGCUACACAUCGUAUGUACCGAAUCGGGGUUUGGGGUUUUUGGGGUUUUUUUGGGGAAAGUAUUAUGUUACGCCGUUCGGAUCUGC: 1.25
CUGUGCUACACAUCGUAUGUACCGAAUCGGUUUUUUUGGGGUUUUUUUGGUUUUUUUGGGGAAAGUAUUAUGUUACGCCGUUCGGAUCUG: -0.318
AAGUCCUGUGCUACACAUCGUAUGUACCGAAUCGGAAAAAGGAAAGGUUUUUUUGGAAAGUAUUAUGUUACGCCGUUCGGAUCUGCACUU: -0.34
ACGAUGCAGGUGGGCAUCUUUGGGAAGUGGGGCAAGGGGGGGAUAGGGAGGGGGGUAACACUUUGGGAACAGGUGGUCCCAGGUCGUUUC: -0.652
